Experimental data gathered from unrelated publications.
Protocols differ between the studies behind these lines. Values joined by “and” are separate records of one study, mostly repeats; a detail may differ. ± gives the spread as reported.

SMILES = CCCCC1(CCCC)CN(c2ccccc2)c2cc(SC)c(OCC(=O)N[C@@H](C(=O)NCC(=O)O)c3ccccc3)cc2S(=O)(=O)C1; test = refers to: LDL cholesterol; system = human, serum; conditions = 5 mg once daily, day 9; measurement = serum LDL-C; value = 99.6 mg/dL
SMILES = CNCCC=C1c2ccccc2CCc2ccccc21; tested on = Plasmodium falciparum; system = D10; measurement = IC50; value = 12.6 µM
SMILES = O=C(NC12CC3CC(CC(C3)C1)C2)c1cc(-c2ccc(F)cc2F)c[nH]1; tested on = Vero; conditions = 48 h; measurement = IC50; value = 32 µg/mL
SMILES = O=C1NC(=O)C(C2C3=C(CCCC3=O)Oc3ccc([N+](=O)[O-])cc32)C(=O)N1 (stereo not shown); tested on = mouse preadipocytes; test = qPCR, refers to: IRS-1; conditions = IC20, 14 days, adipogenic induction; how to read = baseline: untreated cells; measurement = mRNA level; value = decreased
SMILES = Nc1ncc(-c2nc(N3CCOCC3)nc(N3CCOCC3)n2)c(C(F)F)n1; tested on = NCI-H82; conditions = 72 h; measurement = GI50; value = 0.276 µM
SMILES = COc1ccccc1N1CCN(CCCCNC(=O)c2ccc3ccccc3c2)CC1; tested on = Plasmodium falciparum; system = GB4; measurement = IC50; value = 10 µM
SMILES = COc1c(CCC[P+](c2ccccc2)(c2ccccc2)c2ccccc2)cc2c(c1OC)OCO2.[I-]; tested on = A498; test = SRB; measurement = LC50; value = -4.83 log M
SMILES = CC1=C(C(=O)O)N2C(=O)[C@@H](NC(=O)[C@H](N)c3ccccc3)[C@H]2SC1; tested on = PBP1b Streptococcus pneumoniae; test = Bocillin-FL competition; system = live Streptococcus pneumoniae cells; conditions = 30 min, added: Bocillin-FL 600 nM; measurement = kinact/KI; value = 220 ± 83 M⁻¹ s⁻¹
SMILES = CC(C)(CO)Cc1cc(C(C)(C)C)c(O)c(C(C)(C)C)c1; tested on = Plasmodium falciparum; system = 7G8; measurement = IC50; value = 7.94 µM
SMILES = COc1nc(NCC(C)C)nc(Oc2ccc(=O)n(Cc3ccccc3)n2)n1; tested on = Plasmodium falciparum; test = parasite growth, SYBR Green; system = 3D7 wild type; conditions = 72 h; measurement = EC50; value = 0.386 ± 0.091 µM
SMILES = C[C@@H](O)[C@@H]1NC(=O)[C@H](Cc2ccccc2)NC(=O)[C@@H](Cc2ccccc2)NC(=O)[C@H]([C@@H](C)O)NC(=O)[C@@H](CCCCN)NC(=O)[C@H](CC(=O)O)NC1=O; tested on = Naegleria fowleri; conditions = trophozoites; measurement = IC50; value = > 16 µg/mL
SMILES = C[C@@H]1CN(c2ccnc3ccc(Sc4ccc(Oc5ccccc5)cc4)cc23)C[C@H](C)N1; tested on = Plasmodium falciparum; test = parasite growth, SYBR Green; system = 3D7 DHODH E182D; conditions = 72 h; measurement = EC50; value = 0.673 ± 0.081 µM
SMILES = C[C@]1(CO)Cc2ncn(-c3ccc(C#N)c(Cl)c3)c2C(=O)O1; system = human; conditions = 0.7 mg single dose; measurement = urinary sodium excretion Ae(0-24h); value = 212 mmol
SMILES = O=C1CC[C@@]2(O)[C@H]3Cc4ccc(O)c5c4[C@@]2(CCN3CC2CC2)[C@H]1O5; tested on = H+/organic cation antiporter; test = cell uptake; system = hCMEC/D3; measurement = Vmax; value = 945 pmol/min/mg protein
SMILES = Cn1nc(C(=O)N2CCC(c3[nH]ncc3Cc3ccccc3)CC2)c2ccccc2c1=O; tested on = Plasmodium falciparum; test = parasite growth, SYBR Green; system = 3D7 DHODH E182D; conditions = 72 h; measurement = EC50; value = 0.523 ± 0.073 µM
SMILES = NCCCC[C@H]1NC(=O)[C@H](Cc2ccccc2)NC(=O)[C@H](Cc2c[nH]c3ccccc23)NC(=O)[C@@H](Cc2ccccc2)NC(=O)[C@H](Cc2ccccc2)NC(=O)[C@@H](CCCN)NC(=O)[C@H](CCCN)NC1=O; tested on = Naegleria fowleri; conditions = trophozoites; measurement = IC90; value = > 16 µg/mL
SMILES = CC[C@H](C)[C@@H]1NC(=O)[C@@H]2CCCN2C(=O)[C@H](CC(C)C)NC(=O)[C@H](CC(C)C)NC(=O)CNC(=O)[C@@H](NC(=O)[C@@H](NC(=O)[C@H](CC(=O)O)NC(=O)CNC(=O)[C@@H](NC(=O)[C@H](C)NC(=O)CNC(=O)[C@H](CCCCN)NC(=O)[C@H](CC(C)C)NC(=O)[C@H](CC(C)C)NC(=O)[C@H](CCCCN)NC(=O)CNC(=O)[C@@H](NC(=O)[C@@H](N)CC(C)C)C(C)C)C(C)C)C(C)C)CSSC[C@@H](C(=O)O)NC1=O; test = RNA-seq, refers to: Rilpl2; system = mouse, traumatic brain injury model, frontal cortex and hippocampus; conditions = dose not given; how to read = baseline: TBI alone; measurement = log2 fold change; value = -1.28
SMILES = C#CCN(C)[C@H](C)Cc1ccccc1; test = footprint test; system = MPTP-induced Parkinson's disease mouse model; conditions = 10 mg/kg, trial 2; measurement = corridor crossing time; value = 5.55 s and 6.03 s and 5.79 s and 5.37 s and 5.02 s and 5.26 s and 8.35 s and 5.88 s
SMILES = C[C@H]1O[C@@H](O[C@H]2CC[C@@]3(C)[C@@H](CC[C@]4(C)[C@@H]3C=C[C@]35OC[C@@]6(CCC(C)(C)C[C@H]63)[C@@H](O)C[C@]54C)[C@]2(C)CO)[C@H](O)[C@@H](O[C@@H]2O[C@H](CO)[C@@H](O)[C@H](O)[C@H]2O)[C@H]1O; system = mouse, ethanol-fed, hepatic SIRT1 knockdown, serum; conditions = dose not given, 5 h, high dose; measurement = triglycerides; value = 1.44 mM and 1.2 mM and 1.21 mM and 1.55 mM and 1.37 mM and 1.32 mM
SMILES = COc1c(C)c2c(c(O)c1C/C=C(\C)CCC(=O)O)C(=O)OC2; tested on = Breast cancer cell lines; test = cell proliferation; measurement = IC50; value = 1.17 µM
SMILES = C=CCc1ccccc1OCC(O)CNC1(C)CCC(C(C)(C)NC(=O)CBr)CC1 (stereo not shown); tested on = Plasmodium falciparum; system = W2; measurement = IC50; value = 0.794 µM
SMILES = Nc1ncnc2c1ncn2[C@@H]1O[C@@H]2COP(=O)(O)O[C@H]3[C@@H](O)[C@H](n4cnc5c(=O)[nH]cnc54)O[C@@H]3COP(=O)(O)O[C@H]2[C@H]1O; tested on = HFF-1; test = RNA sequencing, refers to: Reactome Butyrophilin family interactions; conditions = upregulated pathways; how to read = baseline: mock; measurement = fold enrichment; value = 19
SMILES = Nc1ccn(C[C@@H](CO)OCP(=O)(O)O)c(=O)n1; tested on = Fowlpox virus; test = viral infection; system = CEF; conditions = 3.125 µM; how to read = baseline: untreated; measurement = infection; value = 111% and 108% and 99.4%
SMILES = O=C(NC12CC3CC(CC(C3)C1)C2)c1cc(-c2ccncc2Cl)c[nH]1; tested on = Vero; conditions = 48 h; measurement = IC50; value = > 64 µg/mL
SMILES = CCC1(C2=NCCN2)Cc2ccccc2O1 (stereo not shown); tested on = Plasmodium falciparum; system = W2; measurement = IC50; value = 3.16 µM
SMILES = COc1cc(CCC[P+](c2ccccc2)(c2ccccc2)c2ccccc2)c(OC)c2c1OCO2.[I-]; tested on = SK-OV-3; test = SRB; measurement = LC50; value = > -4 log M
SMILES = CCCCN(C)CC#Cc1ccc2[nH]c(C)c(Cl)c(=O)c2c1; tested on = Plasmodium falciparum; test = parasite growth, SYBR Green; system = 3D7 wild type; conditions = 72 h; measurement = EC50; value = 0.181 ± 0.026 µM
SMILES = O=S(=O)(c1cccc2c(Cl)cccc12)N1CCCNCC1; tested on = Plasmodium falciparum; system = W2; measurement = IC50; value = 1.26 µM
SMILES = CCNC(=O)c1ccc(-n2nc(C)cc2-c2ccccc2)cc1; tested on = Plasmodium falciparum; test = parasite growth, SYBR Green; system = 3D7 DHODH E182D; conditions = 72 h; measurement = EC50; value = 5.85 ± 0.88 µM
SMILES = C[C@@H](O)[C@@H]1NC(=O)[C@H](Cc2ccccc2)NC(=O)[C@@H](Cc2ccccc2)NC(=O)[C@H](Cc2ccccc2)NC(=O)[C@@H](CCCN)NC(=O)[C@H](CCCCN)NC(=O)[C@@H](CCCCN)NC1=O; tested on = Naegleria fowleri; conditions = trophozoites; measurement = IC50; value = > 16 µg/mL
SMILES = NC(=NCc1ccccc1)NC(=O)c1nc(Cl)c(N)nc1N; tested on = Plasmodium falciparum; system = D10; measurement = IC50; value = 0.794 µM
SMILES = CC(C)C(NC(=O)Cc1cccc2ccccc12)C(=O)Nc1cccc(C#N)c1 (stereo not shown); tested on = Plasmodium falciparum; test = parasite growth, SYBR Green; conditions = 72 h; how to read = baseline: 3D7-E182D over 3D7; measurement = EC50 ratio; value = 29
SMILES = O=C1N=c2cc(Cl)c(Cl)cc2=NC1=O; tested on = Plasmodium falciparum; system = W2; measurement = IC50; value = 3.16 µM
SMILES = CC(C)[C@H]1NC(=O)[C@@H]([C@H](C)O)NC(=O)[C@H](CO)NC(=O)[C@@H](CCCNC(=N)N)NC(=O)CNC(=O)[C@H](Cc2ccccc2)NC(=O)[C@H]([C@@H](C)O)NC1=O; tested on = Acanthamoeba castellanii; conditions = trophozoites; measurement = IC90; value = > 16 µg/mL

For quick reference, copied from above:
SMILES = O=C(NC12CC3CC(CC(C3)C1)C2)c1cc(-c2ccc(F)cc2F)c[nH]1; tested on = Vero; conditions = 48 h; measurement = IC50; value = 32 µg/mL
SMILES = C[C@@H](O)[C@@H]1NC(=O)[C@H](Cc2ccccc2)NC(=O)[C@@H](Cc2ccccc2)NC(=O)[C@H](Cc2ccccc2)NC(=O)[C@@H](CCCN)NC(=O)[C@H](CCCCN)NC(=O)[C@@H](CCCCN)NC1=O; tested on = Naegleria fowleri; conditions = trophozoites; measurement = IC50; value = > 16 µg/mL
